Results from different studies.
A part holds a random share of what one study measured.
Chain of UniProt Q9Y3S1 (whole entry, looked up): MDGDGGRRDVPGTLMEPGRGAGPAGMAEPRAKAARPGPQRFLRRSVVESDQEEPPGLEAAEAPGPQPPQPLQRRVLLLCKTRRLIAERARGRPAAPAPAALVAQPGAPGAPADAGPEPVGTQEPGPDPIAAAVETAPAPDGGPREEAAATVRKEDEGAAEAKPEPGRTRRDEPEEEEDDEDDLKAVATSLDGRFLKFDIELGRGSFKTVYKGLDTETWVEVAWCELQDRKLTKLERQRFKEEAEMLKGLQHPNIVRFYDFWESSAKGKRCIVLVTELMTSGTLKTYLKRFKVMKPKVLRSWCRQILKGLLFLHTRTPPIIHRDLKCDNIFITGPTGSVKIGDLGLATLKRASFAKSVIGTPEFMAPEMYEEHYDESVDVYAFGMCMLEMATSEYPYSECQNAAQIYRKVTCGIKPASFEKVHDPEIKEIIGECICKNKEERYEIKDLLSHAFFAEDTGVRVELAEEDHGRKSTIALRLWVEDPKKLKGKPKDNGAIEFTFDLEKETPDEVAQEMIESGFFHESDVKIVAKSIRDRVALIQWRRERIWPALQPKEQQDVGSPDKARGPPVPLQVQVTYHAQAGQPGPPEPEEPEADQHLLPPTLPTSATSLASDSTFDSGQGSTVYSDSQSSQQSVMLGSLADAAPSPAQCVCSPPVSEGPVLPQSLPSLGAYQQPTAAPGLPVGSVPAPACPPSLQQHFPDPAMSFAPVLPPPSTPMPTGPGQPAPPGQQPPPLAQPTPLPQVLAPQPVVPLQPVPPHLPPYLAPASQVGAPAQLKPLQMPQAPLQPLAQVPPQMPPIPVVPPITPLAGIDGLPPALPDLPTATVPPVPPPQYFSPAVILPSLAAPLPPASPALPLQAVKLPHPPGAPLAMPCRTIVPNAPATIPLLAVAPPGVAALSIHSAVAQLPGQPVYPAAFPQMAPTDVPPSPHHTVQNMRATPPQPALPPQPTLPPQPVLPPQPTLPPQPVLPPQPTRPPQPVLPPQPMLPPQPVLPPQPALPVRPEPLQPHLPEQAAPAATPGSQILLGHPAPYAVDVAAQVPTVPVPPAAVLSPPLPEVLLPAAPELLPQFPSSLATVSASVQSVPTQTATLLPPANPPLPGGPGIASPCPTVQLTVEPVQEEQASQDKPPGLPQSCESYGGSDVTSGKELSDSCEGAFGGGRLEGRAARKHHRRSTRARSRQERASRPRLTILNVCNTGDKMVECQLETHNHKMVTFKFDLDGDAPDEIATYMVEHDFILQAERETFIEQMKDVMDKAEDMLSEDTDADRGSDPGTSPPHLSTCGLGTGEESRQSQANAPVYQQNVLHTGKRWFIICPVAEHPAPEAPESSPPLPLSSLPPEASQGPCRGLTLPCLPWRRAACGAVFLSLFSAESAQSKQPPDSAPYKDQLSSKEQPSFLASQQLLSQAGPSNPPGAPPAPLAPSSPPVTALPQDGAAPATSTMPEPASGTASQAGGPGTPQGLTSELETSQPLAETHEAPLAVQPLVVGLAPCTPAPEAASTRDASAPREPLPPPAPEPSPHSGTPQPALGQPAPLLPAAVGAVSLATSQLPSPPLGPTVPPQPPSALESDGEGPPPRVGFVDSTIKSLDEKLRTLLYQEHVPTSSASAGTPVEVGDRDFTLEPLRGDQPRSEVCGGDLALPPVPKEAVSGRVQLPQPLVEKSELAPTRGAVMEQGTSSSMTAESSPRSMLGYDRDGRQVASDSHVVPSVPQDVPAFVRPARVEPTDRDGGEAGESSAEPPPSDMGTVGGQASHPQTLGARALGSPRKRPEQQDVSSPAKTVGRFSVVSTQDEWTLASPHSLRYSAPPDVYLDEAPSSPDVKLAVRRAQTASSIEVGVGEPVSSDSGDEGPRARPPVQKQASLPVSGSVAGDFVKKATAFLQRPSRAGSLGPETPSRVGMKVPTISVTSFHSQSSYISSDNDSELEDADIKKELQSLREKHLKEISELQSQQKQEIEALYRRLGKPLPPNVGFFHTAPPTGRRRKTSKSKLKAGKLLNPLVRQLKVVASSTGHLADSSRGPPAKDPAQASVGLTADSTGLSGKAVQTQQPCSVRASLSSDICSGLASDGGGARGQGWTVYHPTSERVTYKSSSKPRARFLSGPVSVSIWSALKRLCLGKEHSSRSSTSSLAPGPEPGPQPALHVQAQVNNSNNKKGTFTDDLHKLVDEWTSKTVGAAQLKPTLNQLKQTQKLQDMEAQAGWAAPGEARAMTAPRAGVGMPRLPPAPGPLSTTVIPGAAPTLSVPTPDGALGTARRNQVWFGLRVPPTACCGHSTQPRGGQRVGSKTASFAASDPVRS
Chain of UniProt Q9NWZ3 (whole entry, looked up): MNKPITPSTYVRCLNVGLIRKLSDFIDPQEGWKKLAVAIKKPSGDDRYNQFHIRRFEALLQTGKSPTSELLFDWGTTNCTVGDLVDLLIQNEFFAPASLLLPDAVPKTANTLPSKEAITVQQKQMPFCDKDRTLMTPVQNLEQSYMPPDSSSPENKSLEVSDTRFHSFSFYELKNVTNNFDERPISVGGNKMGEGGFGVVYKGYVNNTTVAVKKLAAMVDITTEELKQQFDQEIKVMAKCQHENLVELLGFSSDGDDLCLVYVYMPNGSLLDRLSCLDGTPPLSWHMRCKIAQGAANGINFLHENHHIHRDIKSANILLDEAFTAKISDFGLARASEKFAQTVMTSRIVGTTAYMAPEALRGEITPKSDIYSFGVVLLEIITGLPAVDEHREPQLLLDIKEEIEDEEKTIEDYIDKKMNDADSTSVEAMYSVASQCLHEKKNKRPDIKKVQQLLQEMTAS
Chain of UniProt O95747 (whole entry, looked up): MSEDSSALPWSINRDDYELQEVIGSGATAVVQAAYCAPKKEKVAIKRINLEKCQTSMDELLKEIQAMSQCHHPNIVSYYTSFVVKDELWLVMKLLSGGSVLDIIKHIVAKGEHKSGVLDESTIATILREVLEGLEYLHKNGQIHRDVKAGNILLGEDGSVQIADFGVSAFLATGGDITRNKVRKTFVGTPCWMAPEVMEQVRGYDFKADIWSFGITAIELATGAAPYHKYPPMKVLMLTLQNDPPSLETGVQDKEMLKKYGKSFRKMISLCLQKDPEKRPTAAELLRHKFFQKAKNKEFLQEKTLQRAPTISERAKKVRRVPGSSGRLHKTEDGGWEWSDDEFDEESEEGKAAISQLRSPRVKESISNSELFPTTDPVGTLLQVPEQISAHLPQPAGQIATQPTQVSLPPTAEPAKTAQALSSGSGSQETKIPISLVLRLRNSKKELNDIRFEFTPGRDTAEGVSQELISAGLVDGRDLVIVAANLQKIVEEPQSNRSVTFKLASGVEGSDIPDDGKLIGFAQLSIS
Chain of UniProt Q12851 (whole entry, looked up): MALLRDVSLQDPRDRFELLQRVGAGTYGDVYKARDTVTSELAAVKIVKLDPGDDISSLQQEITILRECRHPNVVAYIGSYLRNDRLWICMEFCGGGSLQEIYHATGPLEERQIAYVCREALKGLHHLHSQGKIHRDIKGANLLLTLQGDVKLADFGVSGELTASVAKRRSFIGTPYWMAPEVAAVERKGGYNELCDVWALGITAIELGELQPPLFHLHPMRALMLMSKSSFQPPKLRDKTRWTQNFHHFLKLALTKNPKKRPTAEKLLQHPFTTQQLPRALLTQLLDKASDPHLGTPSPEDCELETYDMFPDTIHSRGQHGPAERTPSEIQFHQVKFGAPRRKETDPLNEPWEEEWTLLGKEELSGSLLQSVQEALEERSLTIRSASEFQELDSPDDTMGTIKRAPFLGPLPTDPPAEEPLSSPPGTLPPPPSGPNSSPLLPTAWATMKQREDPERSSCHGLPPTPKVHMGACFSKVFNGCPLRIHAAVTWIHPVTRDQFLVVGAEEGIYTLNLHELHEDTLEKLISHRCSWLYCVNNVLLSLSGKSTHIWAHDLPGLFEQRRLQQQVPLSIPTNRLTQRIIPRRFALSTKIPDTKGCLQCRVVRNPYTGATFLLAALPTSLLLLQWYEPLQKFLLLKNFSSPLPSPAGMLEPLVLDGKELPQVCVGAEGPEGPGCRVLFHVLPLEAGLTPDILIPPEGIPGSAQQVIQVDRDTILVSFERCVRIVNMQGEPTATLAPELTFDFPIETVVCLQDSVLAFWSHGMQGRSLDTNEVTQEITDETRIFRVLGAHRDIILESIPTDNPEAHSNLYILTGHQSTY
Chain of UniProt O14757 (whole entry, looked up): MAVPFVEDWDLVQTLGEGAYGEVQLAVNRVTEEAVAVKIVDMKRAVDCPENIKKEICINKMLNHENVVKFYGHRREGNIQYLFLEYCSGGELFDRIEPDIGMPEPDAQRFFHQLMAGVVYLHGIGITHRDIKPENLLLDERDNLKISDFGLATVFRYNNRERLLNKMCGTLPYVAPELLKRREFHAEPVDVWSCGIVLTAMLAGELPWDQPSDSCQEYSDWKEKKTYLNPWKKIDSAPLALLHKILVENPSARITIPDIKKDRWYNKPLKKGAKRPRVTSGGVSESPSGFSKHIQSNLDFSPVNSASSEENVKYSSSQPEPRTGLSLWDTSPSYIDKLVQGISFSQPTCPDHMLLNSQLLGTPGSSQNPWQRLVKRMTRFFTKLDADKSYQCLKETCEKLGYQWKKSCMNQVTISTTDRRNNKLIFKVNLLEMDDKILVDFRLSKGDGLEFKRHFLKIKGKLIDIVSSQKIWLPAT
Chain of UniProt P53778 (whole entry, looked up): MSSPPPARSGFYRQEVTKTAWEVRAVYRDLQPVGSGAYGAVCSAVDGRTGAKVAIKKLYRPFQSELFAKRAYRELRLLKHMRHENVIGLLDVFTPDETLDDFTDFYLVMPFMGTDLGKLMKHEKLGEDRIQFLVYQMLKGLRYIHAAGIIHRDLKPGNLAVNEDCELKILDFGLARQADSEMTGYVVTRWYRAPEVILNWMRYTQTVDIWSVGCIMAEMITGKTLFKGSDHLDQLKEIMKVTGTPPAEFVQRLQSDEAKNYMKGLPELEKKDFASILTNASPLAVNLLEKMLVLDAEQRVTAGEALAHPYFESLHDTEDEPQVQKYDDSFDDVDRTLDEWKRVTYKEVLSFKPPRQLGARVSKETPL

Series 1 — read-out: AlphaScreen signal; method: AlphaScreen counter screen; matrix: His6 peptide without bromodomain; tested at: 50 µM; notes: assay interference check
Compound | inhibition [%]
COc1ccc(Nc2nc(N)nc3[nH]cnc23)cc1OC | 12.7
Cc1ccnc(NC(=O)c2n[nH]c3ccccc23)c1 | 5.9
Fc1cccc(-c2nnc3ccc(SCc4ccccn4)nn23)c1 | 2.75
CNC(=O)c1cc(Oc2ccc(NC(=O)Nc3cc(C(C)(C)C)nn3-c3ccc4ncccc4c3)c(F)c2)ccn1 | 27.6
N#CC(=Cc1ccc(O)c(O)c1)C(=O)Nc1ccccc1 | 33
COc1cc2ncnc(Nc3cccc(O)c3)c2cc1OC.Cl | 6.35
O=C1Nc2ccccc2C1=Cc1c(Cl)[nH]c2ccccc12 | 59.6
Clc1ccc(Nc2nccn3c(-c4ccsc4)cnc23)cc1 | 36.4

Series 2 — organism: Plasmodium berghei; action: inhibitor; cell line: Huh-7; strain: liver stage; tested at: 10 µM; time: 24 h; baseline: untreated control
Structure (SMILES) | infection rate [%]
CCn1cc(C(=O)O)c(=O)c2cc(F)c(N3CCNC(C)C3)c(F)c21 (stereo not drawn) | 99.4
Nc1ccc(O)c(C(=O)O)c1 | 103
C=C1c2cccc(O)c2C(=O)C2=C(O)[C@]3(O)C(=O)C(C(N)=O)=C(O)[C@@H](N(C)C)[C@@H]3[C@@H](O)[C@H]12 | 36.6
Nc1nnc(-c2cccc(Cl)c2Cl)c(N)n1 | 96.8
Oc1ccc(OCc2ccccc2)cc1 | 84.6
Cc1cccc(C)c1NC(=O)C1CCCCN1C (stereo not drawn) | 96.7
CC(=O)/N=c1/sc(S(N)(=O)=O)nn1C | 106
N[C@H]1C(O)O[C@H](CO)[C@@H](O)[C@@H]1O (stereo partly drawn) | 104
CC(C)(C)NCC(O)COc1cccc2c1C[C@H](O)[C@H](O)C2 (mixture of isomers) | 97.8
COc1cccc(OC)c1C(=O)N[C@@H]1C(=O)N2[C@@H]1SC(C)(C)[C@@H]2C(=O)O | 95.3

Series 3 — read-out: cell-free assay; method: competition with immobilised ligand; tested at: 1 µM
Compound: CN(C)CC#Cc1ccc(OCCCc2sc(N3CCc4cccc(C(=O)Nc5nc6ccccc6s5)c4C3)nc2C(=O)O)c(F)c1
target | remaining binding [%]
Serine/threonine-protein kinase WNK2 (WNK2, Homo sapiens, UniProt Q9Y3S1) | 96
Serine/threonine-protein kinase 33 (STK33, Homo sapiens, UniProt Q9BYT3) | 100
Mitogen-activated protein kinase kinase kinase kinase 4 (MAP4K4, Homo sapiens, UniProt O95819) | 96
Tyrosine-protein kinase ITK/TSK (ITK, Homo sapiens, UniProt Q08881) | 100
Serine/threonine-protein kinase 26 (STK26, Homo sapiens, UniProt Q9P289) | 80
Serine/threonine-protein kinase PAK 6 (PAK6, Homo sapiens, UniProt Q9NQU5) | 100
Testis-specific serine/threonine-protein kinase 3 (TSSK3, Homo sapiens, UniProt Q96PN8) | 84
Serine/threonine-protein kinase OSR1 (OXSR1, Homo sapiens, UniProt O95747) | 86
Serine/threonine-protein kinase D1 (PRKD1, Homo sapiens, UniProt Q15139) | 100
Testis-specific serine/threonine-protein kinase 1 (TSSK1B, Homo sapiens, UniProt Q9BXA7) | 70
Tyrosine-protein kinase JAK2, JH1 (JAK2, Homo sapiens, UniProt O60674) | 100
Phosphorylase b kinase gamma catalytic chain, liver/testis isoform (PHKG2, Homo sapiens, UniProt P15735) | 100
Tyrosine-protein kinase receptor UFO (AXL, Homo sapiens, UniProt P30530) | 92
Serine/threonine-protein kinase D2 (PRKD2, Homo sapiens, UniProt Q9BZL6) | 84
Macrophage-stimulating protein receptor (MST1R, Homo sapiens, UniProt Q04912) | 99
Phosphatidylinositol 4,5-bisphosphate 3-kinase catalytic subunit alpha isoform (PIK3CA, Homo sapiens, UniProt P42336) | 89
Serine/threonine-protein kinase NIM1 (NIM1K, Homo sapiens, UniProt Q8IY84) | 100
Mitogen-activated protein kinase 14 (MAPK14, Homo sapiens, UniProt Q16539) | 100
Dual specificity protein kinase CLK3 (CLK3, Homo sapiens, UniProt P49761) | 86
Calcium/calmodulin-dependent protein kinase kinase 1 (CAMKK1, Homo sapiens, UniProt Q8N5S9) | 87
Tyrosine-protein kinase ABL1, phosphorylated (ABL1, Homo sapiens, UniProt P00519, F317L) | 100
Serine/threonine-protein kinase RIO2 (RIOK2, Homo sapiens, UniProt Q9BVS4) | 100
Proto-oncogene tyrosine-protein kinase receptor Ret (RET, Homo sapiens, UniProt P07949, V804L) | 100

Series 4 — read-out: enzyme activity; action: inhibitor; tested at: 0.5 µM; baseline: control
SMILES: c1cc(-c2cnn3cc(-c4ccc(OCCN5CCCCC5)cc4)cnc23)ccn1
target | remaining activity
Serine/threonine-protein kinase PLK2 (PLK2, Homo sapiens, UniProt Q9NYY3) | 97.1%
Ephrin type-A receptor 5 (EPHA5, Homo sapiens, UniProt P54756) | 66.4%
Tyrosine-protein kinase BTK (BTK, Homo sapiens, UniProt Q06187) | 42.8%
Serine/threonine-protein kinase Chk1 (CHEK1, Homo sapiens, UniProt O14757) | 86.4%
MAP kinase-interacting serine/threonine-protein kinase 2 (MKNK2, Homo sapiens, UniProt Q9HBH9) | 65.4%
Mitogen-activated protein kinase 13 (MAPK13, Homo sapiens, UniProt O15264) | 96.9%
Interleukin-1 receptor-associated kinase 4 (IRAK4, Homo sapiens, UniProt Q9NWZ3) | 105%
RAC-gamma serine/threonine-protein kinase (AKT3, Homo sapiens, UniProt Q9Y243) | 104%
Serine/threonine-protein kinase Nek4 (NEK4, Homo sapiens, UniProt P51957) | 82.5%
Leucine-rich repeat serine/threonine-protein kinase 2 (LRRK2, Homo sapiens, UniProt Q5S007) | 103%
Casein kinase II subunit alpha (CSNK2A1, Homo sapiens, UniProt P68400) | 87.5%
Casein kinase I isoform alpha (CSNK1A1, Homo sapiens, UniProt P48729) | 55.1%
Mitogen-activated protein kinase kinase kinase kinase 2 (MAP4K2, Homo sapiens, UniProt Q12851) | 10.8%
Tyrosine-protein kinase Lyn (LYN, Homo sapiens, UniProt P07948) | 12.9%
Mast/stem cell growth factor receptor Kit (KIT, Homo sapiens, UniProt P10721) | 21.4%
cGMP-dependent protein kinase 1 (PRKG1, Homo sapiens, UniProt Q13976) | 57.6%
Cyclin-dependent kinase 9, with cyclin T1 (CDK9, Homo sapiens, UniProt P50750) | 65%
Mitogen-activated protein kinase kinase kinase 10 (MAP3K10, Homo sapiens, UniProt Q02779) | 95.8%
Serine/threonine-protein kinase WNK2 (WNK2, Homo sapiens, UniProt Q9Y3S1) | 120%
Protein kinase C iota type (PRKCI, Homo sapiens, UniProt P41743) | 98.1%
Dual specificity mitogen-activated protein kinase kinase 6 (MAP2K6, Homo sapiens, UniProt P52564) | 87.8%
Mitogen-activated protein kinase 12 (MAPK12, Homo sapiens, UniProt P53778) | 100%
